# Published values from different studies.
# Each line is one published result; not all experiments were run side by side.
# Medium: plasma
SMILES,test system,setting,half-life
CC(=O)N[C@H](CSSC[C@H](N)C(=O)O)C(=O)N[C@H](C)C(=O)N[C@H](CCCNC(=N)N)C(=O)N[C@H](CCCNC(=N)N)C(=O)N[C@H](CCCNC(=N)N)C(=O)N[C@H](C)C(=O)N[C@H](CCCNC(=N)N)C(N)=O,male human,"intravenous, 2 mg, single dose, healthy volunteers",20 h
CN1CCC[C@]1(C)/C=C/S(=O)(=O)NC(=O)Nc1c2c(cc3c1CCC3)CCC2,human,"oral, 50 mg, single dose, healthy volunteers",5.8 h
O=C(CCc1ccc(CNC(C(=O)O)C2CCCCC2)cn1)NO (centres unmarked),human,"oral, 40 mg, multiple doses, once daily, patients",0.754 h
CCc1cc(Nc2nc(-c3ccc(-n4cnc(C)c4)c(F)c3)cs2)c(C)cc1C,human,"oral, 100 mg, multiple doses, once daily",8.7 h
O=C(CCc1ccc(CNC(C(=O)OC2CCCC2)C2CCCCC2)cn1)NO (centres unmarked),human,"oral, 20 mg, multiple doses, once daily, patients",0.368 h
CC(C)(O)c1ncc([S@](N)(=O)=NC(=O)Nc2c3c(cc4c2CCC4)CCC3)s1,human,"oral, 100 mg, single dose, fed, healthy volunteers",9.76 h
[2H]C([2H])([2H])NC(=O)c1ccc(N2C(=S)N(c3ccc(C#N)c(C(F)(F)F)c3)C(=O)C2(C)C)cc1F,male human,"oral, 40 mg, single dose, fasted",140 h
CC12CC(c3ccc(S(C)(=O)=O)cc3)C3=C4CCC(=O)C=C4CCC3C1CCC2(O)C(F)(F)C(F)(F)F (centres unmarked),human,"oral, 4 mg, single dose, fasted, healthy volunteers",38.9 h

# Repeated from above:
SMILES,test system,setting,half-life
CC(C)(O)c1ncc([S@](N)(=O)=NC(=O)Nc2c3c(cc4c2CCC4)CCC3)s1,human,"oral, 100 mg, single dose, fed, healthy volunteers",9.76 h
